Published values from different studies.
A part holds a random share of what one study measured. Substitutions count along the parent as printed.
Chain of UniProt O15294 (whole entry, looked up): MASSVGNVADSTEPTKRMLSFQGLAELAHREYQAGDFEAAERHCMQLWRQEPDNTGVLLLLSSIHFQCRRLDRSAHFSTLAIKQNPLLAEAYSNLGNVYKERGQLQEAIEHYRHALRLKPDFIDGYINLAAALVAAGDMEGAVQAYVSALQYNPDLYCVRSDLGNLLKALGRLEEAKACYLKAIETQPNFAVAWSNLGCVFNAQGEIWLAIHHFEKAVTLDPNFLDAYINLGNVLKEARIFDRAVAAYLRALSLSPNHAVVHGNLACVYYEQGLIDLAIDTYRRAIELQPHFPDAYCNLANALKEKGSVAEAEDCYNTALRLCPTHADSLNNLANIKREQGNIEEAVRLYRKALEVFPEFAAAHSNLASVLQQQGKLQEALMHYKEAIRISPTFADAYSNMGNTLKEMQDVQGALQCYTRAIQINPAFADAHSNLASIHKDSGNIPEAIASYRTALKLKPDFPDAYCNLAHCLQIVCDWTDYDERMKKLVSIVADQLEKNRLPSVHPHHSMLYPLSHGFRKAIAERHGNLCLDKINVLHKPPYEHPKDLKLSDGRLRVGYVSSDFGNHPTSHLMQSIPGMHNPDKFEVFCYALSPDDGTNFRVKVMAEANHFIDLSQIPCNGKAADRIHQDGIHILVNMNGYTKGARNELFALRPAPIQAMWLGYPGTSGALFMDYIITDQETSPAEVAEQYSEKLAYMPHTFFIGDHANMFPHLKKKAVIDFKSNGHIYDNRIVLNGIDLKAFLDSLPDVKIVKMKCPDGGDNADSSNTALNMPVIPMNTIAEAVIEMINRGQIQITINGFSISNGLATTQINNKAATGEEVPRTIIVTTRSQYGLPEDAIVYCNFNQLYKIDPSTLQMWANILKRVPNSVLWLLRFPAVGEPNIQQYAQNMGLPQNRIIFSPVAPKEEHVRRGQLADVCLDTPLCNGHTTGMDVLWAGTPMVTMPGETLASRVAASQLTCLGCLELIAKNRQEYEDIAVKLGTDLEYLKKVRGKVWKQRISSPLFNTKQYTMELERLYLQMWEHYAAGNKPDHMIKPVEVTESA

Block 1
Target: RNA binding protein fox-1 homolog 2, RRM domain, GST-SBP tag (RBFOX2, Homo sapiens, UniProt O43251-10, residues 100-194)
Technique: RNA Bind-n-Seq
Form: RNA
Matrix: in vitro
Tested at: 365 nM
Notes: natural RNA segment, single round, ends assumed
Baseline: no-protein control
Reading: higher = stronger binding
All sequences stand within: GGGAGUUCUACAGUCCGACGAUC … UGGAAUUCUCGGGUGCCAA
Residues (chain): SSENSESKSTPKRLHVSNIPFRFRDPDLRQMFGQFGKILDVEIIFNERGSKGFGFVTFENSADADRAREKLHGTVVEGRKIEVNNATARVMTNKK
| Strand | RBNS enrichment (R) |
| --- | --- |
| UUCCCCCGUUGUUUACAUGUUGAAAAGGAAAAUCACAAUCACUUGUAAAUGUGCCAUGCUCUGGUGGUGUGGGCAGUCAAUUAUUGUUAGAAUCUUUACCAAAGAUCUGG | 0.425 |
| UGAGAUGGGUUAGGGCAAGUCUUUGCCAUCCCCCAGAUGGCUCUGUCUUCUUGUGUAUGGCAGGGCUGGGACUGCUGUCCCUUGUACAGUUUUCUGUCACUGGUGGGCAC | 0.226 |
| UCCUAUUCAUUUAGCAGUAGCUCCAUUGGGGGGUAUAGUGGUCAGAAGUAGUUACCGUACCUUAGGAUCAUUUGUAUGUCUACUUUAUCUUAACAAAGAAAACCUGGUGC | 0.664 |
| GCCGCUUCGUAUUCCUGGAAGAAGGAAGGCAUAGGCUUCGGUUUUCCCCUCGGAAACUGCUUCUGCUGGAGGAUAUGUGUUGGAAUAAUUACGUCUUGAGUCUGGGAUUA | 0.279 |
| GCGGCGCUCUAGUUGUAUGUAAGAUGGGCAUUCCUCUGCUCUCCUCUAUUCUCCAUGUCGACUGAGAAGAGUAUAAUAAGAACAUUGUACCCUCUCCACACUUAACCCUC | 0.489 |
| AAAUCAGCAUUCAUUUUAAGAAAAGCAACUUUAGUUUCAAAGAUACUUUUAAGCUUCUAAAUUGAUCAUUUAAACUAUUUCUUUAAAUAAGAGAGCCAAAUUAGAGGCUC | 2.18 |
| CUGAGGUGGUUGUGACCUGGAUCUUGAAGACUAAAAGACACAGAGUCUGCUGAGCUGCUCCUGUGCAUGGUGGCUGUCUCUUCAUCUAGGGCAGAAAUCUAUAGAUUCUU | 3.84 |
| AGAGGGUGAACGGAGGCAGCGGGAACAGGUCCUGCCUGCCUGGUGAAGGGGUCCGGUGCAUUUUAUAUUCUCUUUACAAAGGGCCUCUCUUCCACAGUUAACCAGGUCUC | 1.55 |

Block 2
Target: CCNF, cyclin fold, Cln2 fusion (human)
Technique: yeast growth competition, sequencing
Matrix: yeast
Notes: strong parent motif
Baseline: not given
Reading: higher = stronger binding
Starting sequence: SLBP docking peptide (human); ARYKRKLLINDFG
| Substitution | normalised enrichment score |
| --- | --- |
| ARYKRKLLINDFN [G13N] | 1.19 |
| ARYKYKLLINDFG [R5Y] | 0.763 |
| ARYKRKLLINGFG [D11G] | 1.87 |
| ACYKRKLLINDFG [R2C] | 0.884 |
| ARYKRHLLINDFG [K6H] | 0.515 |
| ARYKRKLLIGDFG [N10G] | 2.85 |
| ARYKRYLLINDFG [K6Y] | 1.97 |
| ARYKRSLLINDFG [K6S] | 0.987 |

Block 3
Target: POU domain, class 6, transcription factor 1, POU and homeodomain (POU6F1, Homo sapiens, UniProt Q14863, residues 311-611)
Technique: protein-binding microarray
Form: hairpin DNA
Matrix: in vitro
Tested at: not given
Notes: whole hairpin DNA, median over replicate spots
Baseline: not given
Reading: higher = stronger binding
All sequences stand within: GAGGCCA … TGGCCTCACACTCTT
Target sequence (chain): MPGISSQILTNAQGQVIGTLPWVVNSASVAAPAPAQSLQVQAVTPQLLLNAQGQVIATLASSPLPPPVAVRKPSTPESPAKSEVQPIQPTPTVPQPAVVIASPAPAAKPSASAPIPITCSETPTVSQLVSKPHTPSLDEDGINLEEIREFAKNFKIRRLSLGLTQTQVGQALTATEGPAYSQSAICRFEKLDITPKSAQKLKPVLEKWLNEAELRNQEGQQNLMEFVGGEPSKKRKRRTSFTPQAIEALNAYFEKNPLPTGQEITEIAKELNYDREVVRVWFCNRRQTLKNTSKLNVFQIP
| Strand | median fluorescence [a.u.] |
| --- | --- |
| TAATTACGTGCCTCCTGGCACGTAATTA (5mC at 14) | 975 |
| TACGTAGGTGCCTCCTGGCACCTACGTA (5mC at 32) | 347 |
| TACTTAGGTGCCTCCTGGCACCTAAGTA | 412 |
| TAATGTGGTGCCTCCTGGCACCACATTA | 558 |
| CAATTAGGTGCCTCCTGGCACCTAATTG (5mC at 8) | 546 |
| GAATGAGGTGCCTCCTGGCACCTCATTC (5mC at 35) | 433 |
| TAATTAGCGGCCTCCTGGCCGCTAATTA | 1470 |
| TAATTAGGCGCCTCCTGGCGCCTAATTA | 1440 |

Mixed results
| Sequence | target | test | test system | how to read | measurement | result |
| --- | --- | --- | --- | --- | --- | --- |
| TYSDTNHHAHQWLLK | UDP-N-acetylglucosamine--peptide N-acetylglucosaminyltransferase 110 kDa subunit (OGT, Homo sapiens, UniProt O15294) | binding, phage display NGS | peptide | baseline: input library | minimum log2 enrichment ratio | 1.8 |

For quick reference, copied from above (block 1):
| Strand | RBNS enrichment (R) |
| --- | --- |
| AAAUCAGCAUUCAUUUUAAGAAAAGCAACUUUAGUUUCAAAGAUACUUUUAAGCUUCUAAAUUGAUCAUUUAAACUAUUUCUUUAAAUAAGAGAGCCAAAUUAGAGGCUC | 2.18 |
| CUGAGGUGGUUGUGACCUGGAUCUUGAAGACUAAAAGACACAGAGUCUGCUGAGCUGCUCCUGUGCAUGGUGGCUGUCUCUUCAUCUAGGGCAGAAAUCUAUAGAUUCUU | 3.84 |
